Measured values of several laboratories.
“And” joins repeats or separate records; there may be more than shown. ± gives the spread as reported.

O=C(NNC(=O)c1csnn1)c1ccc(Cl)cc1 — remaining activity (Acetyl-CoA synthetase (Cryptococcus neoformans, UniProt J9VFT1); 781 nM): 78.1%
[2H]c1c([2H])c([C@]2([2H])CCCN2C(=O)C(C)(C)Oc2ccc3cn[nH]c3c2)c([2H])c([2H])c1C([2H])([2H])[2H] — remaining binding (FGR (Homo sapiens, UniProt P09769); KINOMEscan; 1 µM; reference: DMSO control): 60%
CC(C)(C)[C@]1(O)CC2OC(=O)CC23C(=O)OC2OC(=O)[C@H](O)C231 (some centres unmarked) — koff (Rdl (Drosophila melanogaster, UniProt P25123); ion current, inhibitor, two-electrode voltage clamp; from τoff, added: GABA at EC50): 0.083 s⁻¹
CC=O — kcat/Km (ADH1 (Saccharomyces cerevisiae, UniProt P00330, H49Q); enzyme activity, substrate; pH 7.3, 30 °C): 250 mM⁻¹ s⁻¹
COc1cc(Br)cc(Br)c1Oc1cc(Br)cc(Br)c1O — apparent Vmax (SULT1E1 (Homo sapiens, UniProt P49888); sulfonation, substrate): 9.16 nmol/min/mg protein
O=C(CF)N[C@H]1[C@H]([C@H](O)[C@H](O)CO)O[C@@](OC[C@H]2O[C@@H](Oc3ccc([N+](=O)[O-])cc3)[C@H](O)[C@@H](O)[C@H]2O)(C(=O)O)C[C@@H]1O — sialic acid release (Sialidase-2 (Homo sapiens, UniProt Q9Y3R4); substrate; 0.3 mM, 30 min, pH 5.0, 37 °C): 18%
C=C(CN(C(=O)c1c(C(F)F)nn(C)c1F)C1CC1)c1ccc(Cl)cc1Cl — reaction velocity (SDHD/SDHC/SDHB (Sus scrofa, UniProt A5GZW8+D0VWV4+Q007T0); enzyme activity, inhibitor, DCIP reduction; pig; 0.4 µM, added: DCIP 10 µM): 0.00173 µM/s and 0.00197 µM/s
N[C@@H](Cc1c[nH]c2ccccc12)C(=O)O — ΔH (Transcription attenuation protein MtrB, Δ71 truncation (mtrB, Geobacillus stearothermophilus, UniProt Q9X6J6); isothermal titration calorimetry; 25 °C, one-site model): -18.07 ± 0.07 kcal/mol
COc1ccc(N2C(=O)N(c3c(C)cccc3Cl)Cc3cnc(Nc4ccc(C5CCN(C)CC5)cc4OC)nc32)nc1 — inhibition (MAP2K1 (Homo sapiens, UniProt Q02750); kinase activity, inhibitor; 0.5 µM, kinase MEK1): 12%
O=C(c1ccc(Cl)cc1)N1CCN2C(=O)N(OC(=O)N3CCOc4ccccc43)C(=O)C2C1 (centres unmarked) — median ratio (Fatty acid synthase (FASN, Homo sapiens, UniProt P49327); enzyme activity, inhibitor, MS-based ABPP; SW-620 in situ; 10 µM, 2 h, 37 °C; reference: compound over DMSO, lower = stronger inhibition): 1.13
CSCC[C@H](N)C(=O)N[C@@H](C)C(=O)N[C@@H](C)C(=O)N[C@H](C(=O)N[C@@H](C)C(=O)NCC(=O)N[C@@H](CC(C)C)C(=O)N[C@@H](Cc1ccc(O)cc1)C(=O)NCC(=O)N[C@@H](CC(C)C)C(=O)NCC(=O)N[C@@H](CCC(=O)O)C(=O)N[C@@H](CC(=O)O)C(=O)N[C@@H](CCCNC(=N)N)C(=O)N[C@@H](CCC(N)=O)C(=O)N[C@@H](Cc1c[nH]cn1)C(=O)N[C@@H](CCCNC(=N)N)C(=O)N[C@@H](CCCCN)C(=O)N[C@@H](CCCCN)C(=O)N[C@@H](CCC(N)=O)C(N)=O)C(C)C — Hill coefficient (Sh, DEL6-46 (Drosophila melanogaster, UniProt P08510); ion current, blocker, inside-out patch clamp; +50 mV): 0.86
CCN(CC)CCCC[C@H](NC(=O)[C@H](CC(C)C)NC(=O)[C@H](C)NC(=O)[C@H](Cc1ccccc1)NC(=O)c1ccc(C(C)(C)C)cc1)C(=O)N[C@@H](CO)C(=O)OC — specific binding (NTSR1 (Homo sapiens, UniProt P30989); radioligand binding; 10 µM): 110%
CC[C@H](CO)Nc1nc(NCc2ccc(-c3ccccn3)cc2)c2ncn(C(C)C)c2n1 — binding score (CDK9 (Homo sapiens, UniProt P50750); KINOMEscan competition binding; 10 µM, primary screen; direction not given): 3.2
CC[C@@H](C)[C@@H](NC(=O)[C@@H](Cc1ccc(O)cc1)NC(=O)[C@H]1CCCN1C(=O)[C@@H](CCCNC(=N)N)NC(=O)[C@H](N)Cc1c[nH]cn1)C(=O)N[C@H](C)C(=O)N[C@H](Cc1c[nH]cn1)C(=O)N[C@H](CCCNC(=N)N)C(=O)N[C@H](CCCCNC(=O)c1cccc(S(=O)(=O)F)c1)C(=O)N[C@H](Cc1ccc(O)cc1)C(=O)N[C@H](CO)C(=O)N[C@H](Cc1ccccc1)C(N)=O — surface expression (Transferrin receptor protein 1 (Tfrc, Mus musculus, UniProt Q62351); flow cytometry; RAW264.7; 48 h, pH 7.4, unit not given; reference: 0 h): 0.533 and 0.921
O=C(O)COP(=O)(O)O — Ki ratio (TPI1 (Saccharomyces cerevisiae, UniProt P00942, S211G/Y208T); enzyme activity, competitive inhibitor, GPDH/NADH-coupled; pH 5.7, 25 °C, ionic strength 0.1 NaCl, added: glyceraldehyde 3-phosphate substrate; reference: mutant over wild type): 23
COCC1OC2CC(CC(N)C(=O)O)(C(=O)O)OC2C(O)C1O (centres unmarked) — current amplitude (Glutamate receptor ionotropic, kainate 1 (Rattus norvegicus, UniProt P22756, del402-416); ion current, agonist, whole-cell patch-clamp; HEK-293T/17; 10 µM; reference: 10 mM glutamate): ~25%
CN(C(=O)n1cnc(-c2ccc[n+]([O-])c2)c1)C1CCCCC1 — inhibition (CXCR4 (Homo sapiens, UniProt P61073); radioligand binding, inhibitor; 50 µM): -2%
CCOC(=O)CC(SP(=O)(OC)OC)C(=O)OCC (centres unmarked) — remaining activity (uncharacterized protein (Anopheles coluzzii, UniProt A0A6E8VQK1); enzyme activity, inhibitor; Sf9 cell homogenate; 3.44 µM, 0.1667 h, added: α-naphthyl acetate substrate; reference: no inhibitor): 5%
COc1cc(Nc2ncc(F)c(Nc3ccc4c(n3)NC(=O)C(C)(C)O4)n2)cc(OC)c1OC — inhibition (TLK2 (Homo sapiens, UniProt Q86UE8); KINOMEscan; 10 µM): 86%
COc1cc(N)c(Cl)cc1C(=O)NC1CN2CCC1CC2 (centres unmarked) — log2 fold change (G-protein coupled receptor family C group 5 member D (GPRC5D, Homo sapiens, UniProt Q9NZD1); β-arrestin recruitment, TANGO luminescence, item: GPRC5D; concentration not given; reference: basal luminescence): 0.421
CC/C=C\C/C=C\C/C=C\C/C=C\C/C=C\CCCC(=O)O — kcat (cyp102A1 (Bacillus megaterium, UniProt P14779); NADPH consumption, substrate; 100 µM): 5.49 ± 0.18 µmol/min/nmol
O=C1C(=O)c2ccccc2-c2ccccc21 — Km (9,11-endoperoxide prostaglandin H2 reductase (Trypanosoma brucei brucei, UniProt Q9GV41); substrate; Trypanosoma brucei): 420 nM
C[C@H]1CN(c2n[nH]c3nc(N[C@H]4CC[C@H](NS(=O)(=O)CCC(F)(F)F)CC4)ncc23)CCO1 — relative abundance (DDX20 (Homo sapiens, UniProt Q9UHI6); inhibitor, Kinobeads competition profiling; 0.8 µM; reference: vehicle): 1.14
O=C(Nc1cnccc1Cl)N1CCN(Cc2ccc3c(c2)OC(F)(F)O3)CC1 — inhibition (PTGIR (Homo sapiens, UniProt P43119); radioligand binding, inhibitor; 50 µM, human, added: [3H]iloprost): 10%
CN1CCN(c2cc(-c3ccncc3)c(-c3ccc4ccccc4c3)nn2)CC1 — activation (P2Y purinoceptor 4 (P2RY4, Homo sapiens, UniProt P51582); agonist, FLIPR; 12.5 µM): 0.4%
CCCC(=O)N[C@H]1CCOC1=O — Emax (Regulatory protein SdiA (sdiA, Escherichia coli, UniProt P07026)): 123%

For quick reference, copied from above:
O=C(Nc1cnccc1Cl)N1CCN(Cc2ccc3c(c2)OC(F)(F)O3)CC1 — inhibition (PTGIR (Homo sapiens, UniProt P43119); radioligand binding, inhibitor; 50 µM, human, added: [3H]iloprost): 10%
COCC1OC2CC(CC(N)C(=O)O)(C(=O)O)OC2C(O)C1O (centres unmarked) — current amplitude (Glutamate receptor ionotropic, kainate 1 (Rattus norvegicus, UniProt P22756, del402-416); ion current, agonist, whole-cell patch-clamp; HEK-293T/17; 10 µM; reference: 10 mM glutamate): ~25%
COc1ccc(N2C(=O)N(c3c(C)cccc3Cl)Cc3cnc(Nc4ccc(C5CCN(C)CC5)cc4OC)nc32)nc1 — inhibition (MAP2K1 (Homo sapiens, UniProt Q02750); kinase activity, inhibitor; 0.5 µM, kinase MEK1): 12%
